Measurements gathered from unrelated publications.
A part holds a random share of what one study measured.

Study 1 — technique: universal PBM; molecule type: double-stranded DNA, one strand shown; sample: in vitro; tested at: 600 nM; reading: higher = stronger binding; endpoint: E-score
Target: Sal-like protein 4, full length isoform A (SALL4, Homo sapiens, UniProt Q9UJQ4, residues 1-1053)
UniProt Q9UJQ4, sequence (whole entry, looked up): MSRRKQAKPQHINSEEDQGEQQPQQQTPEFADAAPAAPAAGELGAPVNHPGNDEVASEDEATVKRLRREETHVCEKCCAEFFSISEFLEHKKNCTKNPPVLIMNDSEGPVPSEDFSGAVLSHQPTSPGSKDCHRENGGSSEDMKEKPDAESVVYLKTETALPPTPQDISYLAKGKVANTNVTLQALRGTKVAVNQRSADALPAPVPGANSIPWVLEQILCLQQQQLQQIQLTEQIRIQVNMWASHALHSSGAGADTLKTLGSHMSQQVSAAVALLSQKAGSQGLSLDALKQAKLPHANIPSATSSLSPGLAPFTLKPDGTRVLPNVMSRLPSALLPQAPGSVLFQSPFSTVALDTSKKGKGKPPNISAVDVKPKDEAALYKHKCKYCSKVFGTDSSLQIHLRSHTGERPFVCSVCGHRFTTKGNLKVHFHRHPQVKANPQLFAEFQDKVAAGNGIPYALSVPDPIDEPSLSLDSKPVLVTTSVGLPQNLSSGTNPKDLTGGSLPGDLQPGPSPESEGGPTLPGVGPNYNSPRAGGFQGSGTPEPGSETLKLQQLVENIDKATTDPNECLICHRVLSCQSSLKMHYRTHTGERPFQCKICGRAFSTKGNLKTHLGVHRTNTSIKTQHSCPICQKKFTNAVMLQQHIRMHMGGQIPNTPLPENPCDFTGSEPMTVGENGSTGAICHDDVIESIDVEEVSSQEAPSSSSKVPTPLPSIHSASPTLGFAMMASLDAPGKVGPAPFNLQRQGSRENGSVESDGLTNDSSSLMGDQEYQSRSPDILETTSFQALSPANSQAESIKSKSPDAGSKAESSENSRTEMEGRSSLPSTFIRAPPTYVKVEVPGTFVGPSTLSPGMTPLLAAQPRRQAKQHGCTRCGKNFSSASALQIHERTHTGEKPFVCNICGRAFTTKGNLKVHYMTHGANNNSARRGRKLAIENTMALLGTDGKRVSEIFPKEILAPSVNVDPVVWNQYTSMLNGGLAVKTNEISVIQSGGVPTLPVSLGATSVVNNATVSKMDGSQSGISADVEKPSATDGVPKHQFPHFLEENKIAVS
Notes: 8-mer, flanks averaged, mean of replicates
GCACTGCC: -0.0915
CAATGGGA: -0.0418
GGCTAAAC: -0.128
GCCGGAGC: -0.254
CGCGTGGA: -0.291
AAGCATCG: -0.00424

Study 2 — technique: RNA Bind-n-Seq; molecule type: RNA; sample: in vitro; tested at: not given; notes: RNA with constant flanks, ends assumed; baseline: input RNA pool; reading: higher = stronger binding; endpoint: bound/input enrichment
Target: RING finger protein unkempt homolog, zinc fingers 1-6, GST-SBP tag (UNK, Homo sapiens, UniProt Q9C0B0, residues 30-357)
UniProt Q9C0B0, sequence (30-357, looked up): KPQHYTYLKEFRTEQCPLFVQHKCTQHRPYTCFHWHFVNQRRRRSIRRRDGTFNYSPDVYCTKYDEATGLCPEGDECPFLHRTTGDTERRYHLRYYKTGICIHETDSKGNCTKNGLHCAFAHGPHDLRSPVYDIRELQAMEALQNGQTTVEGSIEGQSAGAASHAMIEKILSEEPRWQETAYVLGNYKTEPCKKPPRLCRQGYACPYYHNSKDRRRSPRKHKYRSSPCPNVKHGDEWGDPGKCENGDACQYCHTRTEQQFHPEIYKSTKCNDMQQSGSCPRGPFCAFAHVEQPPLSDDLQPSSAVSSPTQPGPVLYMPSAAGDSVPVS
GGGAGUUCUACAGUCCGACGAUCGCAGUCUUGUACUGUGACCUAAGAACAAAACUGUAACUGCAUUAGAAACCAUGAAAAAAUCCGAUAUUGUUUUGUGACUUUUAGACAGUGGUAAAUAUAGAACCAUGAAUUCUGGUCACACAACAGAGGAUUGAGCAUCA: 3.03 ratio
GGGAGUUCUACAGUCCGACGAUCUCCCCUCUGAACCCCAUAUCUUCUGUUUCAUAAUGCAGAAGUAUUCUUUUCAAUUAUAUUGUCCGUGGACUUGUUUUAAUUUUAGAGAAACUUUGAGUACAGAUACUGUGAGCUUACAUUCAACAGAGGAUUGAGCAUCA: 0.277 ratio
GGGAGUUCUACAGUCCGACGAUCGAUCAGACCAGUAAGCCUGAUGAAACUGGUAAAAGUAGUGUGCUGACUGUAUCAAAUGUAUACCGCCGUAAAUCAAGCAUCAAGGCUACUGUGGUCUCUUCUCCUAAAGCAAAAAGUACACAACAGAGGAUUGAGCAUCA: 0.156 ratio

Study 3 — technique: protein-binding microarray; molecule type: double-stranded DNA, one strand shown; sample: in vitro; tested at: not given; reading: higher = stronger binding; endpoint: E-score
Target: Transcriptional repressor CTCF (CTCF, Homo sapiens, UniProt P49711, residues 1-727, full length assumed)
Notes: k-mer, scored over probes, only values ≥0.25
Residues (chain): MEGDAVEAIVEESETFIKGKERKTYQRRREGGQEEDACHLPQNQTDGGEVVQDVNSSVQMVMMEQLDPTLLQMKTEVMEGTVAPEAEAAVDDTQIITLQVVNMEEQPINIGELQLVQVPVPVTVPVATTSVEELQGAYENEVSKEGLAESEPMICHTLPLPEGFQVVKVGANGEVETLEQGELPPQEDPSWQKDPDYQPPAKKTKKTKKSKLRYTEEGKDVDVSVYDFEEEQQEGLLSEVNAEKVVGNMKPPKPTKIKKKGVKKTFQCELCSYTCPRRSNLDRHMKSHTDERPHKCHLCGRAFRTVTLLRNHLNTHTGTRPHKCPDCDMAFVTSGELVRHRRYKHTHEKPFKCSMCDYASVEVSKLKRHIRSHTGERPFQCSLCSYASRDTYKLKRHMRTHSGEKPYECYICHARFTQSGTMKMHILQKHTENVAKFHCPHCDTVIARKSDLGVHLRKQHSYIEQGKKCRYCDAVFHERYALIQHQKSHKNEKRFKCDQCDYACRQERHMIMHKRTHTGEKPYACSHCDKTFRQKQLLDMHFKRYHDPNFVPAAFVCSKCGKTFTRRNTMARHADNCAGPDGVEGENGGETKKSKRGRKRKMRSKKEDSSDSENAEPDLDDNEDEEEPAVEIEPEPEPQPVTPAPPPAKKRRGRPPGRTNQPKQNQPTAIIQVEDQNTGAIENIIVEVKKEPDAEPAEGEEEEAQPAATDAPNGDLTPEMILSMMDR
TAATATAA: 0.375
ATGCAATC: 0.269
GATTGCGC: 0.367
AATTATAT: 0.251
ATACAATC: 0.307
CCCCACCC: 0.352

Mixed results
PhoQ, residues 284 288 289 292 302 303 NLMGRA  fold induction (PhoP, residues 12 14 15 18 19 GQALL (Escherichia coli, UniProt P23836); Sort-seq, measured: YFP reporter; E. coli; PhoQ-PhoP variant library, with: 10 µM Mg2+; baseline: high Mg2+ state, higher = stronger signaling): 23.6

Excerpt of the above (study 2):
GGGAGUUCUACAGUCCGACGAUCGCAGUCUUGUACUGUGACCUAAGAACAAAACUGUAACUGCAUUAGAAACCAUGAAAAAAUCCGAUAUUGUUUUGUGACUUUUAGACAGUGGUAAAUAUAGAACCAUGAAUUCUGGUCACACAACAGAGGAUUGAGCAUCA: 3.03 ratio
GGGAGUUCUACAGUCCGACGAUCUCCCCUCUGAACCCCAUAUCUUCUGUUUCAUAAUGCAGAAGUAUUCUUUUCAAUUAUAUUGUCCGUGGACUUGUUUUAAUUUUAGAGAAACUUUGAGUACAGAUACUGUGAGCUUACAUUCAACAGAGGAUUGAGCAUCA: 0.277 ratio
GGGAGUUCUACAGUCCGACGAUCGAUCAGACCAGUAAGCCUGAUGAAACUGGUAAAAGUAGUGUGCUGACUGUAUCAAAUGUAUACCGCCGUAAAUCAAGCAUCAAGGCUACUGUGGUCUCUUCUCCUAAAGCAAAAAGUACACAACAGAGGAUUGAGCAUCA: 0.156 ratio
